Published values pooled from the literature.
Each numbered part is a random draw from the data of one study; scales do not carry over between parts. Positions count from the first letter of the parent shown.

Series 1
Target: Sal-like protein 4, full length isoform B (SALL4, Homo sapiens, UniProt Q9UJQ4-2, residues 1-616)
Method: universal PBM
Form: double-stranded DNA, one strand shown
Medium: in vitro
Tested at: not given
Notes: 8-mer, flanks averaged, mean of replicates
Reading: higher = stronger binding
Construct (chain): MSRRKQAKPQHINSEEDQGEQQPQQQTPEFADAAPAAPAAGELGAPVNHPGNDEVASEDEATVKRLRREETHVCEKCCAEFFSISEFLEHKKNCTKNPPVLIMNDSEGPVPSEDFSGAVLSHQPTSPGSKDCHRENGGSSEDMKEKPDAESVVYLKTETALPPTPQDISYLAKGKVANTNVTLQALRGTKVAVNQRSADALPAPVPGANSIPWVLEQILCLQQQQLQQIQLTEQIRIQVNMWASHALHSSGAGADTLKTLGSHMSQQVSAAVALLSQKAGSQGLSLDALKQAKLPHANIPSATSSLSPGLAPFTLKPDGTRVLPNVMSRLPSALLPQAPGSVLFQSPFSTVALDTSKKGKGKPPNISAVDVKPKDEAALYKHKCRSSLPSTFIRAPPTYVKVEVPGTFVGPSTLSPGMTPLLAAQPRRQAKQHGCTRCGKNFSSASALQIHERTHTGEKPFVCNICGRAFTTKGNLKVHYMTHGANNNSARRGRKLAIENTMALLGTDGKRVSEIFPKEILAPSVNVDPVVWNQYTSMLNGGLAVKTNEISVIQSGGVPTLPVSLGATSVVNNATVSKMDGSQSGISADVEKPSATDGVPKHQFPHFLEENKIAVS
| Sequence | E-score |
| --- | --- |
| ATATAGGC | 0.261 |
| TGGCTAAA | 0.132 |
| ATAACGAT | 0.11 |
| AAGTGCCC | -0.191 |
| AGTGTCTA | 0.103 |
| GTCAATGA | 0.0604 |
| CTACAAAG | 0.152 |
| ATGGAGAA | 0.115 |
| ACCTCCCG | -0.219 |
| CCGAGTCA | -0.161 |
| GTCTCCCA | -0.183 |
| CCAGATCG | -0.208 |
| GCCTTGTA | 0.0697 |
| ATAGGTGC | 0.054 |
| AACGGACA | -0.0408 |
| ACGGAGAC | -0.0462 |
| CGGTGGCA | -0.267 |
| GGACAACC | -0.255 |
| GGCCCCGA | -0.328 |
| GAGTTATC | 0.151 |
| GCGGCTAC | -0.302 |
| GTACACAA | 0.114 |
| CGCCCACC | -0.231 |
| ATCATTTA | 0.339 |
| AAGTAGCT | -0.0233 |

Series 2
Target: CCNF, cyclin fold, Cln2 fusion (human)
Method: yeast growth competition, sequencing
Medium: yeast
Notes: strong parent motif
Reference: not given
Reading: higher = stronger binding
Parent: CDC6 docking peptide (human); TLKGRRLVFDNQL
| Change | normalised enrichment score |
| --- | --- |
| TLKVRRLVFDNQL [G4V] | 4.83 |
| PLKGRRLVFDNQL [T1P] | 8.94 |
| TLKGRRLVFANQL [D10A] | 7.8 |
| TLQGRRLVFDNQL [K3Q] | 7.81 |
| DLKGRRLVFDNQL [T1D] | 6.8 |
| TLKGRRLVFDIQL [N11I] | 8.16 |
| TLKDRRLVFDNQL [G4D] | 0.783 |
| TLKGRLLVFDNQL [R6L] | 5.08 |
| TLKGRRHVFDNQL [L7H] | 0.701 |
| TLKGRRWVFDNQL [L7W] | 1.83 |
| TLKGRMLVFDNQL [R6M] | 8.05 |
| TLKHRRLVFDNQL [G4H] | 3.72 |

Series 3
Target: Ras GTPase-activating protein-binding protein 1, RRM domain (G3BP1, Homo sapiens, UniProt Q13283)
UniProt Q13283, sequence (whole entry, looked up): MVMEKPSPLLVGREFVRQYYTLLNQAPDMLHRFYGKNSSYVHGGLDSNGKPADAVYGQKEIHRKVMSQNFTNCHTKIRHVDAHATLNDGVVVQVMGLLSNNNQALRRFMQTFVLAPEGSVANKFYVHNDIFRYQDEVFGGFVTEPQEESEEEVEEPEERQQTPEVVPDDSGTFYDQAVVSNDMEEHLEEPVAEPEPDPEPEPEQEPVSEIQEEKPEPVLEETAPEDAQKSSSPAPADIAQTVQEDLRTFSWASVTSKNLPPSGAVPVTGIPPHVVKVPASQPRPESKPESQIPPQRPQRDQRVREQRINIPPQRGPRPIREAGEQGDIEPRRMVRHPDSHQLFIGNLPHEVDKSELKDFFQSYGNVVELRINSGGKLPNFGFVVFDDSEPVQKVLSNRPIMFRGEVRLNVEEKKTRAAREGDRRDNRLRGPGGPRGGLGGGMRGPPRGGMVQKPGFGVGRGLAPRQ
Method: RNA Bind-n-Seq
Form: RNA
Medium: in vitro
Tested at: 1 µM
Notes: whole 134-nt RNA, ends assumed
Together with: 150 mM KCl
Reference: input library
Reading: higher = stronger binding
All sequences stand within: GGGAGUUCUACAGUCCGACGAUC … UGGAAUUCUCGGGUGUCAAGG
| Sequence | log2 enrichment |
| --- | --- |
| UCAAGUCCUGUGCUACACAUCGUAUGUACCGAAUCGGGGAAAGGAAAGGAAAGGGAAAGUAUUAUGUUACGCCGUUCGGAUCUGCACUUC | -0.262 |
| CCUGUGCUACACAUCGUAUGUACCGAAUCGGGGCCCCCCGGCCCCCCGGGGCCCCCCGGGGAAAGUAUUAUGUUACGCCGUUCGGAUCUG | -0.647 |
| UCCUCAAGUCCUGUGCUACACAUCGUAUGUACCGAAUCGGUGGGUGGGUGGAAAGUAUUAUGUUACGCCGUUCGGAUCUGCACUUCCAGC | -0.123 |
| GCAGGAAGUAAAAACAAAUGGAAAUGCUUCGGAUAGUGAAAGGGGUGGGGGUUGCUAAGGAAAGGGUGGGAUGGGAGUGGGUAAAGAGUU | 1.43 |
| CACAAACAACACGCACCCACACAGACACAGAGGGAAGGGGUUGGGAUGGGGACAGGGUGCACAGCAGGGCGGGGUAGGACCCCAGCCCCU | -0.0864 |
| CCUCAAGUCCUGUGCUACACAUCGUAUGUACCGAAUCGGAAAGGUUUGGAGGAAAGUAUUAUGUUACGCCGUUCGGAUCUGCACUUCCAG | -0.0873 |
| UGCCUUGCAGAUACGUGGCUUUCCUGAAGCUGUUCCUGGAGACGGCGGAGAAGCACUUCAUGGUGGGCCACCGUGUCCACUACUAUGUCU | -0.0924 |
| ACCAUGCAGGUGGGCAUCUUUGGGAGGUGGGGCAAGGGGGGGAUAGGGAGGGGGGUAACACUUUGGGAACAGGUGGUCCCAGGUCGUUUC | -0.531 |
| CAAGUCCUGUGCUACACAUCGUAUGUACCGAAUCGGGAAAAAAAGGGAGGGAGGGAAAGUAUUAUGUUACGCCGUUCGGAUCUGCACUUC | 0.817 |

Series 4
Target: Prothrombin, mature alpha-thrombin (F2, Homo sapiens, UniProt P00734)
Method: aptamer microarray, sandwich
Form: DNA with 2'F-ANA
Medium: in vitro
Tested at: 200 nM
Notes: whole 15-mer aptamer, many near background
Together with: Cy3 exosite-II aptamer, 400 nM
Reading: higher = stronger binding
Sequence: GGTTGGTGTGGTTGG
| Modification | mean fluorescence intensity |
| --- | --- |
| 2'F-ANA at 1 2 4 9 10 12 | 58.9 a.u. |
| 2'F-ANA at 3 5 6 10 11 12 15 | 58.1 a.u. |
| 2'F-ANA at 3 7 8 11 14 15 | 647 a.u. |
| 2'F-ANA at 3 5 6 7 9 10 11 14 | 48.9 a.u. |
| 2'F-ANA at 1 2 3 4 5 6 7 9 11 13 15 | 53.5 a.u. |
| 2'F-ANA at 2 3 4 5 7 10 14 15 | 48.3 a.u. |
| 2'F-ANA at 6 9 11 12 13 14 | 166 a.u. |
| 2'F-ANA at 1 2 3 5 7 10 | 62.4 a.u. |
| 2'F-ANA at 1 2 4 5 7 | 57.6 a.u. |
| 2'F-ANA at 1 3 5 7 8 10 11 12 14 15 | 76.2 a.u. |
| 2'F-ANA at 5 6 9 11 12 13 14 | 45.2 a.u. |
| 2'F-ANA at 1 3 5 6 7 8 10 11 12 15 | 55 a.u. |
| 2'F-ANA at 1 2 3 4 6 7 8 11 15 | 153 a.u. |
| 2'F-ANA at 3 10 11 14 15 | 332 a.u. |
| 2'F-ANA at 2 3 4 5 7 8 11 12 14 15 | 97.5 a.u. |
| 2'F-ANA at 1 3 4 5 7 9 10 12 13 15 | 46.9 a.u. |
| 2'F-ANA at 1 2 4 5 10 14 15 | 43.7 a.u. |
| 2'F-ANA at 4 5 7 8 12 13 | 109 a.u. |
| 2'F-ANA at 1 3 10 11 14 | 57.8 a.u. |
| 2'F-ANA at 3 4 5 7 10 11 12 13 14 | 49.2 a.u. |

Series 5
Target: Histone acetyltransferase KAT6A, winged helix 2, GST fusion (KAT6A, Homo sapiens, UniProt Q92794, residues 85-181)
Method: protein binding microarray
Form: double-stranded DNA, one strand shown
Medium: in vitro
Tested at: not given
Notes: 8-mer, flanks averaged, mean of 2 arrays, mostly near background
Reference: not given
Reading: higher = stronger binding
Residues (chain): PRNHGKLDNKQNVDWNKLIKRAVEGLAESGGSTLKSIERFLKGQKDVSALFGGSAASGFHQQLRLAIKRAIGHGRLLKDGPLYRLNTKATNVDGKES
| Sequence | E-score |
| --- | --- |
| CCCCCATA | -0.201 |
| GGCCACCC | 0.182 |
| ATAGGTCG | -0.0892 |
| CGAGGAAC | 0.0952 |
| ATTGCGAG | 0.127 |
| CCACTAGA | -0.148 |
| GGCCGGCA | 0.279 |
| ACTTCTGG | -0.175 |
| ACAAATCG | -0.0303 |
| TGAAAGCA | 0.158 |
| TCAGCTGA | 0.00638 |
| ATCCCCCC | -0.283 |
| GATAATCC | -0.0134 |
| CTCAACAC | 0.107 |
| CAATTGTG | -0.105 |
| AGTCACCC | 0.0846 |
| ACGATTGG | -0.0199 |

Series 6
Target: Protein max, full length (MAX, Homo sapiens, UniProt P61244-2, residues 1-151)
Method: protein-binding microarray
Form: double-stranded DNA, one strand shown
Medium: in vitro
Tested at: not given
Notes: k-mer, scored over probes, only values ≥0.25
Reading: higher = stronger binding
| Sequence | E-score |
| --- | --- |
| GTGTGTTA | 0.266 |
| GCATATGA | 0.298 |
| AACACATG | 0.479 |
| CACGTTGG | 0.436 |
| CATGGCCA | 0.33 |
| AGGCGCAT | 0.283 |
| CGTGACCC | 0.371 |
| ATGCGTGA | 0.355 |
| ACTCATGG | 0.3 |
| CACGCGCA | 0.442 |
| ACGAGCAC | 0.307 |
| ATGCACGA | 0.295 |
| CCATGCGC | 0.445 |

Repeated from above (series 4):
| Modification | mean fluorescence intensity |
| --- | --- |
| 2'F-ANA at 3 5 6 10 11 12 15 | 58.1 a.u. |
| 2'F-ANA at 3 7 8 11 14 15 | 647 a.u. |
| 2'F-ANA at 3 5 6 7 9 10 11 14 | 48.9 a.u. |
| 2'F-ANA at 1 2 3 4 5 6 7 9 11 13 15 | 53.5 a.u. |
| 2'F-ANA at 2 3 4 5 7 10 14 15 | 48.3 a.u. |
| 2'F-ANA at 6 9 11 12 13 14 | 166 a.u. |
| 2'F-ANA at 1 2 3 5 7 10 | 62.4 a.u. |
| 2'F-ANA at 1 2 4 5 7 | 57.6 a.u. |
| 2'F-ANA at 1 3 5 7 8 10 11 12 14 15 | 76.2 a.u. |
| 2'F-ANA at 5 6 9 11 12 13 14 | 45.2 a.u. |
| 2'F-ANA at 1 3 5 6 7 8 10 11 12 15 | 55 a.u. |
| 2'F-ANA at 1 2 3 4 6 7 8 11 15 | 153 a.u. |
| 2'F-ANA at 3 10 11 14 15 | 332 a.u. |
| 2'F-ANA at 2 3 4 5 7 8 11 12 14 15 | 97.5 a.u. |
| 2'F-ANA at 1 3 4 5 7 9 10 12 13 15 | 46.9 a.u. |
